# Experimental data from different studies.
SMILES,test,test system,conditions,endpoint,value
Cn1ncc(-c2nc(N[C@H]3CC[C@H](N)CC3)ncc2Cl)c1CC1CC1,item: treatment-related Thrombocytopenia grade 3 or higher,human patients phase I,dose not given,patients with adverse events,3.2%
O=C(c1ccc(F)c(F)c1Nc1ccc(I)cc1F)N1CC(O)([C@@H]2CCCCN2)C1,,human patients,"oral, 1 mg/kg, patients aged at least sample B years",patients with treatment-related SAE,100%
CCS(=O)(=O)Nc1ccc(Oc2ccc(F)cc2F)c(-c2cn(C)c(=O)c3[nH]ccc23)c1,item: Acidosis,"human, relapsed/refractory AML","oral, dose not given, trial, added: alone or with venetoclax",patients with serious adverse event,5%
COc1ncnn2ccc(-c3cnc4nc(C)n(Cc5nnc([C@@H](C)F)o5)c4c3)c12,,human,"oral, dose not given, grade 3",patients with amylase increased,7.1%
O=C1Nc2cc3[nH]nc(-c4ccncc4)c3cc2CN1Cc1ccccc1,CTCAE v4.03,"human, relapsed or refractory advanced solid tumours","intravenous, 3.6 mg/kg, pooled schedules",patients with vomiting,33%
C=CC(=O)Nc1cc(Nc2nccc(Nc3cc(Cl)c(F)cc3C(C)(C)O)n2)c(OC)cc1N1CC[C@@H](N(C)C)C1,,human patients,"oral, 300 mg, treatment-emergent adverse events",patients with mouth ulceration,21.6%
COc1ccc(-c2c(-c3ccc(C#N)c(F)c3)nc(N3CCC(N)CC3)n(C)c2=O)cc1F,item: general health deterioration,human patients,"oral, 60 mg, dose expansion",patients with serious TEAE,5%
C[C@]1(O)C[C@@](N)(c2ccc(-c3nc4n(c3-c3ccccc3)COc3ccncc3-4)cc2)C1,,"human, advanced or metastatic solid tumours","intermittent, dose escalation total",patients with grade ≥3 Hyperglycemia TEAE,14.3%
Cc1cn([C@H]2O[C@@H](CO[P@@](=O)(N[C@@H](C)C(=O)OC(C)C)Oc3ccccc3)[C@H](O)[C@H]2F)c(=O)[nH]c1=O,item: bone pain,human,50 mg,patients with TEAE,0%
Cn1cncc1-c1c(F)cncc1NC(=O)c1c(N)nn2cc(F)cnc12,,human patients,"oral, up to 40 mg once daily",patients grade ≥3 Anemia,0%
C[C@@H]1OC(=O)NN=C1c1ccc(-c2ccc(F)cc2)c(C(F)(F)F)c1,"phase I trial, item: Cough worst grade 1",human patients,10 mg loading then 0.5 mg daily,patients with adverse event,0%
CCN1[C@@H](C(=O)NC23CCC(C(=O)O)(CC2)CC3)[C@H](c2cccc(Cl)c2F)[C@]2(C(=O)Nc3cc(Cl)ccc32)C12CCCCC2,item: any-grade treatment-related elevated AST,"human, advanced solid tumours","oral, dose not given, phase I, all patients",patients with adverse event,4.8%
CCN(CCO)CCCC(C)Nc1ccnc2cc(Cl)ccc12 (stereo not shown),,"human, newly diagnosed glioblastoma","oral, 400 mg/dose, muscle weakness grade 3, with RT and TMZ",patients with adverse event,14%

# Repeated from above:
SMILES,test,test system,conditions,endpoint,value
CCN1[C@@H](C(=O)NC23CCC(C(=O)O)(CC2)CC3)[C@H](c2cccc(Cl)c2F)[C@]2(C(=O)Nc3cc(Cl)ccc32)C12CCCCC2,item: any-grade treatment-related elevated AST,"human, advanced solid tumours","oral, dose not given, phase I, all patients",patients with adverse event,4.8%
